Published values gathered from unrelated publications.
Each numbered part is a random draw from the data of one study; scales do not carry over between parts.

Study 1
Target: Ras GTPase-activating protein-binding protein 1, C-terminal RGG region (G3BP1, Homo sapiens, UniProt Q13283)
Sequence of UniProt Q13283 (whole entry, looked up): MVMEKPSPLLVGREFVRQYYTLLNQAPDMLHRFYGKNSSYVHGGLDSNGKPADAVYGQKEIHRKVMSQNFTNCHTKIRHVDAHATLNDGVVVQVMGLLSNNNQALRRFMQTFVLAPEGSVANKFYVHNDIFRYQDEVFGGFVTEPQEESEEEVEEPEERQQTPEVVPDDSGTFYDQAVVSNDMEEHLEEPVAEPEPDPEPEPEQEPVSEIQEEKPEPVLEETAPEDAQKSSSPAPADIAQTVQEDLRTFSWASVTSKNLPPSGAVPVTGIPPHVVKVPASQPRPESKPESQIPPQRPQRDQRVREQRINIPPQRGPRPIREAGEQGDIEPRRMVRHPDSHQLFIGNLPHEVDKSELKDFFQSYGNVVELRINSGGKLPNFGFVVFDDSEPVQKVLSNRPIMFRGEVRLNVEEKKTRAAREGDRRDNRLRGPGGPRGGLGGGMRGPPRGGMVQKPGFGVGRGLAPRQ
Technique: RNA Bind-n-Seq
Form: RNA
Sample: in vitro
Tested at: 1 µM
Setting: whole 134-nt RNA, ends assumed
Together with: 150 mM KCl
Reference: input library
Reading: higher = stronger binding
Endpoint: log2 enrichment
GGGAGUUCUACAGUCCGACGAUCUGCUUCUGAGUUGCCCAGGAGACCACUGGCAGAUGUCCCGGCGAAGAGAAGAGACACAUUGUUGGAAGAAGCAGCCCAUGACAGCUCCCCUGGAAUUCUCGGGUGUCAAGG: -0.995
GGGAGUUCUACAGUCCGACGAUCCACAGACAACACGCACCCACACAGACACAGAGGGAAGGGGUCGGGAUGGGGACAGGGUGCACAGCAGGGCGGGGUAGGACCCCAGCCCCUUGGAAUUCUCGGGUGUCAAGG: -0.355
GGGAGUUCUACAGUCCGACGAUCGUCCUGUGCUACACAUCGUAUGUACCGAAUCGGUUUUUGGGGUUUUUGGGUUUUUGGGGAAAGUAUUAUGUUACGCCGUUCGGAUCUGCAUGGAAUUCUCGGGUGUCAAGG: -0.624

Study 2
Molecule: PhoQ, residues 284 288 289 292 302 303 SIHMAM
Technique: Sort-seq
Refers to: YFP reporter
Sample: E. coli
Setting: PhoQ-PhoP variant library
Together with: 10 µM Mg2+
Reference: high Mg2+ state
Reading: higher = stronger signaling
Endpoint: fold induction
PhoP, residues 12 14 15 18 19 STHWV (Escherichia coli, UniProt P23836): 0.794
PhoP, residues 12 14 15 18 19 QYCSL (Escherichia coli, UniProt P23836): 13.9
PhoP, residues 12 14 15 18 19 SHWTV (Escherichia coli, UniProt P23836): 3.03

Study 3
Target: Histone acetyltransferase KAT6A, winged helix 2, GST fusion (KAT6A, Homo sapiens, UniProt Q92794, residues 85-181)
Technique: protein binding microarray
Form: double-stranded DNA, one strand shown
Sample: in vitro
Tested at: not given
Setting: 8-mer, flanks averaged, mean of 2 arrays, mostly near background
Reference: not given
Reading: higher = stronger binding
Endpoint: E-score
Target sequence (chain): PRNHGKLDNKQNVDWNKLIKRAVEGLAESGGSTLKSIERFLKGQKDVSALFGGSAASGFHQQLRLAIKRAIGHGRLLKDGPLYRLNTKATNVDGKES
ACGGGCGA: 0.0213
CGCAAACG: 0.0429
GCTTAAGC: 0.0734
GACGCGCA: 0.0585
CCCAAGTC: -0.228
CACATTAC: -0.162

Study 4
Target: Sal-like protein 4, full length isoform A (SALL4, Homo sapiens, UniProt Q9UJQ4, residues 1-1053)
Sequence of UniProt Q9UJQ4 (whole entry, looked up): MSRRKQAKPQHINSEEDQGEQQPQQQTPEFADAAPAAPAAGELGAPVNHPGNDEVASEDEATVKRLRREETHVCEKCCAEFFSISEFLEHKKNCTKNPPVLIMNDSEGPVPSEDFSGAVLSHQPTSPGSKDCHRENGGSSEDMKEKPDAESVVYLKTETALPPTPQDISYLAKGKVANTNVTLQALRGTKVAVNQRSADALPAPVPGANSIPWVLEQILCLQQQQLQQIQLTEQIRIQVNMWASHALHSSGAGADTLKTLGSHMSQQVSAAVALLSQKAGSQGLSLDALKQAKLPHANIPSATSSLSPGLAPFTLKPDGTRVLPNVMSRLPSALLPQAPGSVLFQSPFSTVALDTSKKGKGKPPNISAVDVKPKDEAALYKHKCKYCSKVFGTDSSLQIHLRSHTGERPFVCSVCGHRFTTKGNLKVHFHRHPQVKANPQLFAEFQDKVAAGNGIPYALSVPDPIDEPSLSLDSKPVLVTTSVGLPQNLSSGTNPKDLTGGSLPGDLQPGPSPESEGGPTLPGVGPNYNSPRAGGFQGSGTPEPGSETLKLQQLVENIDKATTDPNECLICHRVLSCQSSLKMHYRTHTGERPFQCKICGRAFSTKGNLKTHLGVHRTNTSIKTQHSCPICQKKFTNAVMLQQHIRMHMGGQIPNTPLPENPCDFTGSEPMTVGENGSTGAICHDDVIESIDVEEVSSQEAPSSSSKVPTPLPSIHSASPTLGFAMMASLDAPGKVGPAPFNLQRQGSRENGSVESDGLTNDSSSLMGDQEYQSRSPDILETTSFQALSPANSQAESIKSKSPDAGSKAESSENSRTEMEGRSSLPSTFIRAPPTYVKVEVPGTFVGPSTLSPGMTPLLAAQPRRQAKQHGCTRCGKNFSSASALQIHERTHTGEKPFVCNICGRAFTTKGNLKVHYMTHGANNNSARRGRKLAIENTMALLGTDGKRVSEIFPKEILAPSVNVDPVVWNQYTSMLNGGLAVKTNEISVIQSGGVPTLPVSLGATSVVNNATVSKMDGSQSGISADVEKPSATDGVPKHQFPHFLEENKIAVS
Technique: universal PBM
Form: double-stranded DNA, one strand shown
Sample: in vitro
Tested at: 600 nM
Setting: 8-mer, flanks averaged, mean of replicates
Reading: higher = stronger binding
Endpoint: E-score
AGGATGAT: 0.0727
ATCTGTGC: 0.0117
AGAAAGGG: 0.0342
GGTATGAC: -0.104
AGTGAAAA: 0.181
ACGGGGTC: -0.345

Repeated from above (study 4):
AGTGAAAA: 0.181
ACGGGGTC: -0.345
